Results gathered from unrelated publications.
Each line is one published result; not all experiments were run side by side.
Organism: Klebsiella pneumoniae

SMILES = CC(=O)NC[C@H]1CN(c2ccc(N3CCN(C(=O)CN)CC3)c(F)c2)C(=O)O1; test = broth dilution; system = ATCC 27736; MIC = inactive
SMILES = C#CCNC(=O)C1(O/N=C(\C(=O)N[C@@H]2C(=O)N(OS(=O)(=O)O)C2(C)C)c2csc(N)n2)CC1; test = agar dilution; system = 16-14 ESBL; MIC = 4 µg/mL
SMILES = CC[C@H]1OC(=O)[C@H](C)[C@@H](OC(=O)Cc2cccc3ccccc23)[C@H](C)[C@@H](O[C@@H]2O[C@H](C)C[C@H](N(C)C)[C@H]2O)[C@](C)(OC)C[C@@H](C)C(=O)[C@H](C)[C@@H](O)[C@]1(C)O; test = microbial growth; system = ATCC700603; MIC = > 32 µg/mL
SMILES = CC1(C)[C@H](NC(=O)/C(=N\OCC(=O)N2CCC(C(=O)O)CC2)c2csc(N)n2)C(=O)N1OS(=O)(=O)O; test = agar dilution; system = ATCC 700603, ESBL-producing; MIC = > 64 µg/mL
SMILES = CCCCCCn1cc[n+](CCCCCCCCCCOc2cc(OCCCCCCCCCC[n+]3ccn(CCCCCC)c3)cc(OCCCCCCCCCC[n+]3ccn(CCCCCC)c3)c2)c1.[Br-].[Br-].[Br-]; system = ATCC 4352; MIC = 16 µM
SMILES = CN[C@H](CC(C)C)C(=O)N[C@H]1C(=O)N[C@@H](CC(N)=O)C(=O)N[C@H]2C(=O)N[C@H]3C(=O)N[C@H](C(=O)N[C@H](C(=O)N[C@@H](CCCNC(=N)N)C(N)=O)c4cc(O)cc(O)c4-c4cc3ccc4O)[C@H](O)c3ccc(c(Cl)c3)Oc3cc2cc(c3O[C@@H]2O[C@H](CO)[C@@H](O)[C@H](O)[C@H]2O[C@H]2C[C@](C)(NCc3ccc(OCc4cn(CC(=O)N[C@H](C(=O)N[C@@H](CCN)C(=O)N[C@H]5CCNC(=O)[C@H]([C@@H](C)O)NC(=O)[C@H](CCN)NC(=O)[C@H](CCN)NC(=O)[C@H](CC(C)C)NC(=O)[C@@H](CC(C)C)NC(=O)[C@H](CCN)NC5=O)[C@@H](C)O)nn4)c(OC)c3)[C@H](O)[C@H](C)O2)Oc2ccc(cc2Cl)[C@H]1O; test = broth microdilution; system = ATCC 13883, cation-adjusted Mueller-Hinton broth; conditions = 18 to 20 h, 37 °C, 0.002% polysorbate 80; MIC = 32 µg/mL
SMILES = CC[C@H]1OC(=O)[C@H](C)[C@@H](OC(=O)Cc2ccccc2Cl)[C@H](C)[C@@H](O[C@@H]2O[C@H](C)C[C@H](N(C)C)[C@H]2O)[C@](C)(OC)C[C@@H](C)C(=O)[C@H](C)[C@@H](O)[C@]1(C)O; test = microbial growth; system = ATCC700603; MIC = > 32 µg/mL
SMILES = CC(C)C[C@@H]1NC(=O)[C@@H](CC(C)C)NC(=O)[C@H](CCN)NC(=O)[C@@H](NC(=O)[C@H](CCN)NC(=O)[C@@H](N)[C@@H](C)O)CCNC(=O)[C@H]([C@@H](C)O)NC(=O)[C@H](CCN)NC(=O)[C@H](CCN)NC1=O; test = broth microdilution; system = ATCC 13883, cation-adjusted Mueller-Hinton broth; conditions = 18 to 20 h, 37 °C, 0.002% polysorbate 80; MIC = > 128 µg/mL
SMILES = CCCCCCn1cc[n+](CCCCCCOc2cc(OCCCCCC[n+]3ccn(CCCCCC)c3)cc(OCCCCCC[n+]3ccn(CCCCCC)c3)c2)c1.[Br-].[Br-].[Br-]; system = ATCC 4352; MIC = 1 µM
SMILES = CCCCCCCC(=O)N[C@@H](CCN)C(=O)N[C@H](C(=O)N[C@@H](CCN)C(=O)N[C@H]1CCNC(=O)[C@H]([C@@H](C)O)NC(=O)[C@H](CCN)NC(=O)[C@H](CCN)NC(=O)[C@H](CC(C)C)NC(=O)[C@@H](Cc2ccccc2)NC(=O)[C@H](CCN)NC1=O)[C@@H](C)O; test = broth microdilution; system = ATCC 13883; MIC = 16 µg/mL
SMILES = CC1(C)[C@H](NC(=O)/C(=N\OCC(=O)N2CCC(C(=O)O)C2)c2nsc(N)n2)C(=O)N1OS(=O)(=O)O (stereo partly drawn); test = agar dilution; system = ATCC 700603, ESBL-producing; MIC = > 64 µg/mL
SMILES = CN[C@H](CC(C)C)C(=O)N[C@H]1C(=O)N[C@@H](CC(N)=O)C(=O)N[C@H]2C(=O)N[C@H]3C(=O)N[C@H](C(=O)N[C@H](C(=O)NCC(N)=O)c4cc(O)cc(O)c4-c4cc3ccc4O)[C@H](O)c3ccc(c(Cl)c3)Oc3cc2cc(c3O[C@@H]2O[C@H](CO)[C@@H](O)[C@H](O)[C@H]2O[C@H]2C[C@](C)(NCc3ccc(OCc4cn(CC(=O)N[C@H](C(=O)N[C@@H](CCN)C(=O)N[C@H]5CCNC(=O)[C@H]([C@@H](C)O)NC(=O)[C@H](CCN)NC(=O)[C@H](CCN)NC(=O)[C@H](CC(C)C)NC(=O)[C@@H](CC(C)C)NC(=O)[C@H](CCN)NC5=O)[C@@H](C)O)nn4)c(OC)c3)[C@H](O)[C@H](C)O2)Oc2ccc(cc2Cl)[C@H]1O; test = broth microdilution; system = ATCC 13883, cation-adjusted Mueller-Hinton broth; conditions = 18 to 20 h, 37 °C, 0.002% polysorbate 80; MIC = 16 µg/mL
SMILES = CCCCCCCCCCn1cc[n+](CCCCOc2cc(OCCCC[n+]3ccn(CCCCCCCCCC)c3)cc(OCCCC[n+]3ccn(CCCCCCCCCC)c3)c2)c1.[Br-].[Br-].[Br-]; system = ATCC 4352; MIC = 1 µM
SMILES = CC[C@H]1OC(=O)[C@H](C)[C@@H](OC(=O)Cc2c(F)cc([N+](=O)[O-])cc2F)[C@H](C)[C@@H](O[C@@H]2O[C@H](C)C[C@H](N(C)C)[C@H]2O)[C@](C)(OC)C[C@@H](C)C(=O)[C@H](C)[C@@H](O)[C@]1(C)O; test = microbial growth; system = ATCC700603; MIC = > 32 µg/mL
SMILES = CC1(C)[C@H](NC(=O)/C(=N\OC2(C(=O)O)CCCC2)c2csc(N)n2)C(=O)N1OS(=O)(=O)O; test = agar dilution; system = ATCC 700603, ESBL-producing; MIC = 1 µg/mL
SMILES = COc1c(NC(=O)c2ccc(NC(=O)c3ccc(NC(=O)[C@H](Cc4c[nH]nn4)NC(=O)c4ccc(NC(=O)/C(C)=C/c5ccc(O)cc5)cc4)cc3)c(OC)c2O)ccc(C(=O)O)c1O; test = microbial growth, broth dilution; MIC = 16 µg/mL
SMILES = CCCCCCCCCCCCCCCCCCn1cc(CN(CCC(=O)NCCN(CCC(=O)NCCN(CCC(=O)NCCN(C)C)CCC(=O)NCCN(C)C)CCC(=O)NCCN(CCC(=O)NCCN(C)C)CCC(=O)NCCN(C)C)CCC(=O)NCCN(CCC(=O)NCCN(CCC(=O)NCCN(C)C)CCC(=O)NCCN(C)C)CCC(=O)NCCN(CCC(=O)NCCN(C)C)CCC(=O)NCCN(C)C)nn1; test = microbial growth, broth dilution; system = ATCC13883; conditions = 18 h; MIC = 48 µg/mL
SMILES = CCCCCC[N+](C)(C)CCCCCCCCOc1cc(OCCCCCCCC[N+](C)(C)CCCCCC)cc(OCCCCCCCC[N+](C)(C)CCCCCC)c1.[Br-].[Br-].[Br-]; system = ATCC 4352; MIC = 2 µM
SMILES = C#CCO/N=C(\C(=O)N[C@@H]1C(=O)N(OS(=O)(=O)O)C1(C)C)c1nsc(N)n1; test = agar dilution; system = 16-14, ESBL-producing; MIC = 32 µg/mL
SMILES = COc1nc(C(=O)Nc2ccc(C(=O)O)c(O)c2OC)ccc1NC(=O)c1ccc(NC(=O)[C@H](Cc2c[nH]nn2)NC(=O)c2ccc(NC(=O)/C(C)=C/c3ccc(O)cc3)cc2)cc1; test = broth microdilution; system = ciprofloxacin-sensitive; MIC = 64 µg/mL
SMILES = CC1(C)[C@H](NC(=O)/C(=N\OCc2c(Cl)cccc2Cl)c2csc(N)n2)C(=O)N1OS(=O)(=O)O; test = agar dilution; system = 16-14, ESBL-producing; MIC = 8 µg/mL
SMILES = COC(=O)CNC(=O)c1ccc(NC(=O)c2[nH]c(C)c(Cl)c2Cl)c(N2CCN(C(=O)OC(C)(C)C)CC2)c1; test = microbial growth, broth dilution; system = ATCC700603; MIC = > 32 µg/mL
SMILES = CC[C@H](C)[C@H](NC(=O)[C@H](CCC(N)=O)NC(=O)[C@H](Cc1ccccc1)NC(=O)[C@H](CC(N)=O)NC(=O)[C@H](CCCCN)NC(=O)[C@H](CC(C)C)NC(=O)[C@H](CCCNC(=N)N)NC(=O)[C@H](CCCCN)NC(=O)[C@H](CCCCN)NC(=O)[C@@H](NC(=O)[C@H](CO)NC(=O)[C@H](CCCCN)NC(=O)CNC(=O)[C@H](CC(C)C)NC(=O)[C@H](CCCCN)NC(=O)[C@H](CCCCN)NC(=O)[C@H](CC(C)C)NC(=O)[C@H](CCCCN)NC(=O)[C@H](CCCCN)NC(=O)[C@H](CCCNC(=N)N)NC(=O)[C@H](CC(C)C)NC(=O)CNC(=O)[C@@H](N)CCCNC(=N)N)[C@@H](C)CC)C(=O)NCC(=O)N[C@@H](Cc1ccccc1)C(=O)N[C@@H](CO)C(=O)N[C@H](C(=O)N1CCC[C@H]1C(=O)N[C@@H](Cc1ccccc1)C(=O)N[C@@H](C)C(=O)NCC(=O)O)C(C)C; test = broth microdilution; system = ATCC 43816; MIC = 2.36 µM
SMILES = C#CCO/N=C(\C(=O)N[C@@H]1C(=O)N(OS(=O)(=O)O)C1(C)C)c1csc(N)n1; test = agar dilution; system = 16-14, ESBL-producing; MIC = 1 µg/mL
SMILES = CN[C@H](CC(C)C)C(=O)N[C@H]1C(=O)N[C@@H](CC(N)=O)C(=O)N[C@H]2C(=O)N[C@H]3C(=O)N[C@H](C(=O)N[C@H](C(=O)O)c4cc(O)cc(O)c4-c4cc3ccc4O)[C@H](O)c3ccc(c(Cl)c3)Oc3cc2cc(c3O[C@@H]2O[C@H](CO)[C@@H](O)[C@H](O)[C@H]2O[C@H]2C[C@](C)(NCc3ccc(OCc4cn(CCCCC(=O)N[C@H](C(=O)N[C@@H](CCN)C(=O)N[C@H]5CCNC(=O)[C@H]([C@@H](C)O)NC(=O)[C@H](CCN)NC(=O)[C@H](CCN)NC(=O)[C@H](CC(C)C)NC(=O)[C@@H](CC(C)C)NC(=O)[C@H](CCN)NC5=O)[C@@H](C)O)nn4)c(OC)c3)[C@H](O)[C@H](C)O2)Oc2ccc(cc2Cl)[C@H]1O; test = broth microdilution; system = ATCC 13883, cation-adjusted Mueller-Hinton broth; conditions = 18 to 20 h, 37 °C, 0.002% polysorbate 80; MIC = 8 µg/mL
SMILES = CCCCCCCCCCCC[N+](C)(C)CCCCCCCCOc1cc(OCCCCCCCC[N+](C)(C)CCCCCCCCCCCC)cc(OCCCCCCCC[N+](C)(C)CCCCCCCCCCCC)c1.[Br-].[Br-].[Br-]; system = ATCC 4352; MIC = 125 µM
SMILES = CC1(C)[C@H](NC(=O)/C(=N\OC2(C(=O)O)CCCCC2)c2csc(N)n2)C(=O)N1OS(=O)(=O)O; test = agar dilution; system = ATCC 700603, ESBL-producing; MIC = 8 µg/mL

A few entries again:
SMILES = CC(C)C[C@@H]1NC(=O)[C@@H](CC(C)C)NC(=O)[C@H](CCN)NC(=O)[C@@H](NC(=O)[C@H](CCN)NC(=O)[C@@H](N)[C@@H](C)O)CCNC(=O)[C@H]([C@@H](C)O)NC(=O)[C@H](CCN)NC(=O)[C@H](CCN)NC1=O; test = broth microdilution; system = ATCC 13883, cation-adjusted Mueller-Hinton broth; conditions = 18 to 20 h, 37 °C, 0.002% polysorbate 80; MIC = > 128 µg/mL
SMILES = CC1(C)[C@H](NC(=O)/C(=N\OC2(C(=O)O)CCCCC2)c2csc(N)n2)C(=O)N1OS(=O)(=O)O; test = agar dilution; system = ATCC 700603, ESBL-producing; MIC = 8 µg/mL
SMILES = CC1(C)[C@H](NC(=O)/C(=N\OCc2c(Cl)cccc2Cl)c2csc(N)n2)C(=O)N1OS(=O)(=O)O; test = agar dilution; system = 16-14, ESBL-producing; MIC = 8 µg/mL
SMILES = CC1(C)[C@H](NC(=O)/C(=N\OC2(C(=O)O)CCCC2)c2csc(N)n2)C(=O)N1OS(=O)(=O)O; test = agar dilution; system = ATCC 700603, ESBL-producing; MIC = 1 µg/mL
